Results of several laboratories.
Every numbered part comes from another study and shows a few of its results, in no order. Positions count from the first letter of the parent shown.

Sample 1
Target: ABI1, truncated, D143A, DHFR fusion (Arabidopsis thaliana)
Technique: DHFR PCA, deep sequencing
Sample: yeast
Setting: methotrexate growth selection, single substitutions
With: (+)-ABA 200 µM
Baseline: wild-type fitted maximum
Direction: higher = stronger binding
Parent: PYL1, truncated, DHFR fusion (Arabidopsis thaliana); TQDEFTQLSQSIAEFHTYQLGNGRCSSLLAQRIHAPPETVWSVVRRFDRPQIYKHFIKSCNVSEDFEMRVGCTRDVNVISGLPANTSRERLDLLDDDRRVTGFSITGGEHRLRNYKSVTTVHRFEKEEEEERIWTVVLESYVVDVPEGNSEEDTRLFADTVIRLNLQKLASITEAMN
For `T135P`, “relative binding score” read 8.39%.
`G102Q` — result for “relative binding score”: 73.5%.
`N165L`: “relative binding score” 1.02%.
`V118A` — result for “relative binding score”: 71.9%.
Under “relative binding score”, `N61I` is recorded as 107%.
`A170W`: “relative binding score” 20.3%.
Under “relative binding score”, `E139L` is recorded as 77.5%.
Under “relative binding score”, `L82S` is recorded as 28.8%.
`E128R` — result for “relative binding score”: 109%.
`R99H` — result for “relative binding score”: 101%.
Under “relative binding score”, `E152M` is recorded as 91.9%.
`E109I`: “relative binding score” 98.5%.
`P83V`: “relative binding score” 14.7%.
Under “relative binding score”, `Q2A` is recorded as 95.4%.
For `S87N`, “relative binding score” read 7.62%.
For `N77R`, “relative binding score” read 107%.

Sample 2
Target: Histone acetyltransferase KAT6A, winged helix 1, GST fusion (KAT6A, Homo sapiens, UniProt Q92794, residues 1-85)
Technique: protein binding microarray
Form: double-stranded DNA, one strand shown
Sample: in vitro
Concentration: not given
Setting: 8-mer, flanks averaged, mean of 2 arrays, mostly near background
Baseline: not given
Direction: higher = stronger binding
Target sequence (chain): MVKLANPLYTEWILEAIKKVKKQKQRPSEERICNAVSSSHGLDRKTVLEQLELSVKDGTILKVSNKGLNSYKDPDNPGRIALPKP
The E-score of `TAGCCCTA` is reported as -0.0793.
`CTTAGACA` gave an E-score of -0.119.
For `ACTCCTTG`, the E-score was -0.0699.
`GACGGGAC` gave an E-score of 0.395.
`AGCCGCTG` gave an E-score of 0.262.
`CGTATCGA` gave an E-score of 0.0832.
`AGAGCTAA` gave an E-score of -0.241.
`GTGGTGCA` has an E-score of -0.14.
For `CAGACGAA`, the E-score was -0.164.
With `CCATATCC` the E-score was 0.0131.
`CCAGCTGA` has an E-score of -0.245.
The E-score of `CTTCGTGA` is reported as 0.035.
With `CTCAATGA` the E-score was -0.183.
For `TGCATCAA`, the E-score was -0.146.
For `AGTCCCGA`, the E-score was 0.0432.
The E-score of `AACCCACT` is reported as 0.00577.

Sample 3
Target: JDP2, bZIP domain (human)
Technique: DHFR protein complementation
Sample: yeast
Setting: single substitutions, most at no-binding floor
Baseline: wild-type JUN-FOS pair
Direction: higher = stronger binding
Parent: JUN, bZIP domain (human); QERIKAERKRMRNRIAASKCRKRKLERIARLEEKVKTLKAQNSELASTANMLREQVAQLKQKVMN; partner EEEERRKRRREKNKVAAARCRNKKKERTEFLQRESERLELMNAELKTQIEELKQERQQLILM
`A57E` has a binding fitness of 0.287 natural log.
`L52K` gave a binding fitness of -0.588 natural log.
With `A49N` the binding fitness was 0.0266 natural log.
`V35H` gave a binding fitness of 0.175 natural log.
The binding fitness of `S43M` is reported as 0.25 natural log.
The binding fitness of `V56C` is reported as 0.205 natural log.
With `N42T` the binding fitness was 0.171 natural log.
`I28N` has a binding fitness of 0.244 natural log.
`V56G` gave a binding fitness of -0.263 natural log.
The binding fitness of `E33H` is reported as 0.189 natural log.
`L38D` has a binding fitness of -0.141 natural log.
`I28G` has a binding fitness of 0.352 natural log.
The binding fitness of `A40M` is reported as 0.214 natural log.
With `V35M` the binding fitness was 0.244 natural log.
For `E44Y`, the binding fitness was 0.133 natural log.
For `A29C`, the binding fitness was 0.167 natural log.

Sample 4
Target: UBE2T UBC core domain (UniProt Q9NPD8)
Technique: yeast two-hybrid
Sample: yeast
Setting: mostly zero background
Baseline: not given
Direction: higher = stronger interaction
B1: SH3RF2 RING domain (UniProt Q8TEC5); chain DDLTLLDLLECPVCFEKLDVTAKVLPCQHTFCKPCLQRVFKAHKELRCPECRTPVFSNIEAL
B2: DTX4 RING domain (UniProt Q9Y2E6); chain QKVRHPPDEDCTICMERLTAPSGYKGPQPTVKPDLVGKLSRCGHVYHIYCLVAMYNNGNKDGSLQCPTCKTIYGVKTGTQ
B3: TRIM40 RING domain (UniProt Q6P9F5); chain LQKDNQEEGVCPICQESLKEAVSTNCGHLFCRVCLTQHVEKASASGVFCCPLCRKPCSEEVLG
B4: RC3H1 RING domain (UniProt Q5TC82); chain QAPQWTDFLSCPICTQTFDETIRKPISLGCGHTVCKMCLNKLHRKACPFDQTTINTDIELL
B5: TRIM5 RING domain (UniProt Q9C035); chain ILVNVKEEVTCPICLELLTQPLSLDCGHSFCQACLTANHKKSMLDKGESSCPVCRISYQPENIRP
B6: RNF111 RING domain (UniProt Q6ZNA4); chain EGTEEDTEEKCTICLSILEEGEDVRRLPCMHLFHQVCVDQWLITNKKCPICRVDIEAQLPSE
B7: VPS41 RING domain (UniProt P49754); chain KGVLVDEENICESCLSPILPSDAAKPFSVVVFHCRHMFHKECLPMPSMNSAAQFCNICSAKNRGPGSAI
B8: TRIML1 RING domain (UniProt Q8N9V2); chain LMENLREELTCFICLDYFSSPVTTECGHSFCLVCLLRSWEEHNTPLSCPECWRTLEGPHFQS
B9: TRIM5 RING domain (UniProt Q9C035); chain LREVKLSPEGQKVDHCARHGEKLLLFCQEDGKVICWLCERSQEHRGHHTFLTEEVAREYQVKL
B10: TRAF5 RING domain (UniProt O00463); chain FVERLEERYKCAFCHSVLHNPHQTGCGHRFCQHCILSLRELNTVPICPVDKEVIKSQEVFK
Construct (chain): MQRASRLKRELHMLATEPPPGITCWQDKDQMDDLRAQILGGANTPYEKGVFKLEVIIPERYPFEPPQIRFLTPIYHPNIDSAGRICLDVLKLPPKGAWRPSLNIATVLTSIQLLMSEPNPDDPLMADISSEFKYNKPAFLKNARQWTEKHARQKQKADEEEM
Under “lacZ reporter activity”, `FQGDVDEDLICPICSGVLEEPVQAPHCEHAFCNACITQWFSQQQTCPVDRSVVTVAHLRP (RNF41 RING domain (UniProt Q9H4P4))` is recorded as 0.
`B1 (SH3RF2 RING domain)`: “lacZ reporter activity” 0.
For `B2 (DTX4 RING domain)`, “lacZ reporter activity” read 0.
For `B3 (TRIM40 RING domain)`, “lacZ reporter activity” read 0.
Under “lacZ reporter activity”, `QVDKAVFHMQSVKCLKCQEQKRAVLPCQHAALCELCAEGSECPICQPGRAHTLQS (UNK RING domain (UniProt Q9C0B0))` is recorded as 0.
`DHGAVGQEMCCPICCSEYVKGEVATELPCHHYFHKPCVSIWLQKSGTCPVCRCMFPPPL (PJA1 RING domain (UniProt Q8NG27))` — result for “lacZ reporter activity”: 0.
For `B4 (RC3H1 RING domain)`, “lacZ reporter activity” read 0.
`B5 (TRIM5 RING domain)` — result for “lacZ reporter activity”: 0.
Under “lacZ reporter activity”, `B6 (RNF111 RING domain)` is recorded as 0.
`B7 (VPS41 RING domain)`: “lacZ reporter activity” 0.
Under “lacZ reporter activity”, `MPIRALCTICSDFFDHSRDVAAIHCGHTFHLQCLIQWFETAPSRTCPQCRIQVGKRTIIN (TRAIP RING domain (UniProt Q9BWF2))` is recorded as 0.
Under “lacZ reporter activity”, `B8 (TRIML1 RING domain)` is recorded as 0.
For `PAELEVQASECVVCLEREAQMIFLNCGHVCCCQQCCQPLRTCPLCRQDIAQRLRIY (LRSAM1 RING domain (UniProt Q6UWE0))`, “lacZ reporter activity” read 0.
`ASLPTSEEDLCPICYAHPISAVFQPCGHKSCKACINQHLMNNKDCFFCKTTIVSVEDWE (RNF123 RING domain (UniProt Q5XPI4))`: “lacZ reporter activity” 0.
`B9 (TRIM5 RING domain)`: “lacZ reporter activity” 0.
Under “lacZ reporter activity”, `B10 (TRAF5 RING domain)` is recorded as 0.

Sample 5
Target: CCNA1, cyclin fold, Cln2 fusion (human)
Technique: yeast growth competition, sequencing
Sample: yeast
Setting: weak parent motif
Baseline: not given
Direction: higher = stronger binding
Parent: WEE2 docking peptide (human); KELRQKLNFSYCE
Under “normalised enrichment score”, `KELRQALNFSYCE [K6A]` is recorded as 0.207.
Under “normalised enrichment score”, `KELRQKLNFSYCA [E13A]` is recorded as 0.048.
Under “normalised enrichment score”, `AELRQKLNFSYCE [K1A]` is recorded as -0.529.
Under “normalised enrichment score”, `KEARQKLNFSYCE [L3A]` is recorded as -0.177.
For `KELRQKLNFSACE [Y11A]`, “normalised enrichment score” read 0.0766.
Under “normalised enrichment score”, `KELRQKLNASYCE [F9A]` is recorded as 0.109.
`KELRQKLNFSYAE [C12A]`: “normalised enrichment score” -0.486.

Sample 6
Target: Interferon regulatory factor 5, full length, phosphomimetic (IRF5, Homo sapiens, UniProt Q13568-2, residues 1-514, K96S/S451D/S453D/S456D/S462D)
Technique: protein-binding microarray
Form: double-stranded DNA, one strand shown
Sample: in vitro
Concentration: 250 nM
Setting: 60-bp whole probe
With: salmon DNA 0.4 mg/ml
Baseline: random background probes
Direction: higher = stronger binding
Shared flanks, not repeated: GCCTAGCAC … GTCTTGATTCGCTTGACGCTGCTG
`CCCTCCCTAATTCTGATTGGGTGCTAG` gave a log fluorescence of -0.158 z-score.
`GACGGTTTCGGTATCGGAACGTGCTAG` gave a log fluorescence of 9.99 z-score.
With `GACGGATTCGACTTTCGGGACGTGCTA` the log fluorescence was 5.28 z-score.
For `TTAGGTATCGGGGTTCGGTTAGTGCTA`, the log fluorescence was 2.06 z-score.
With `CCTCATCTTCCTCTGCCACAGTGCTAG` the log fluorescence was 0.267 z-score.
With `TTATGTATCGGTCTCGGTTAGTGCTAG` the log fluorescence was 7.29 z-score.
With `TTAGGTATCGACTATCGGGTAGTGCTA` the log fluorescence was 5.85 z-score.
`TTAGATATCGGGTAACGATTAGTGCTA` gave a log fluorescence of 2.6 z-score.
The log fluorescence of `TGGGAAATTCCTCTGAGGCAGTGCTAG` is reported as -0.354 z-score.
With `GACGGTTTCGGTTGCGGGACGTGCTAG` the log fluorescence was 9.59 z-score.
For `GACGATTTCAGTCTCGAGCCGTGCTAG`, the log fluorescence was 1.23 z-score.
For `GAGGTTTTCTAATGTTTTTTAGTGCTA`, the log fluorescence was 0.692 z-score.
With `TTAGAATTCAGTCTCGATTAGTGCTAG` the log fluorescence was 1.34 z-score.
`TTAGGTATCCTCCTCCTTTAGTGCTAG` gave a log fluorescence of -0.0134 z-score.
With `TTAGGGTTCGGGTTTCGGTTAGTGCTA` the log fluorescence was 7.13 z-score.
`GACGGACTGGATTTCGGGACGTGCTAG` has a log fluorescence of 0.72 z-score.
With `GACGGTTTCCTTATACTGACGTGCTAG` the log fluorescence was 0.727 z-score.
